Results of several laboratories.
Every numbered part comes from another study and shows a few of its results, in no order. Several values in a cell are separate wells, animals, samples, runs or records.
Sequence of UniProt P36507 (whole entry, looked up): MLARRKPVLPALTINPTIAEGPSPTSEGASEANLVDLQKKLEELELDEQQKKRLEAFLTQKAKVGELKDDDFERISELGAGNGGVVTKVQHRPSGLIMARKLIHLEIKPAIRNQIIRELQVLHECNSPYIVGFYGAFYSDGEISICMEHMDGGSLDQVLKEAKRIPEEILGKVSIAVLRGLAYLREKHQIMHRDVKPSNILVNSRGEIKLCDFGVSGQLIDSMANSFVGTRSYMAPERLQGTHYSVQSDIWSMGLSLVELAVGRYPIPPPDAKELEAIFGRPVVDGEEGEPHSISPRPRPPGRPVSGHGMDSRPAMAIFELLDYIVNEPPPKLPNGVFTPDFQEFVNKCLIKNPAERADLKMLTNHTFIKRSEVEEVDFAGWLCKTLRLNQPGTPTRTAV
Sequence of UniProt P49137 (whole entry, looked up): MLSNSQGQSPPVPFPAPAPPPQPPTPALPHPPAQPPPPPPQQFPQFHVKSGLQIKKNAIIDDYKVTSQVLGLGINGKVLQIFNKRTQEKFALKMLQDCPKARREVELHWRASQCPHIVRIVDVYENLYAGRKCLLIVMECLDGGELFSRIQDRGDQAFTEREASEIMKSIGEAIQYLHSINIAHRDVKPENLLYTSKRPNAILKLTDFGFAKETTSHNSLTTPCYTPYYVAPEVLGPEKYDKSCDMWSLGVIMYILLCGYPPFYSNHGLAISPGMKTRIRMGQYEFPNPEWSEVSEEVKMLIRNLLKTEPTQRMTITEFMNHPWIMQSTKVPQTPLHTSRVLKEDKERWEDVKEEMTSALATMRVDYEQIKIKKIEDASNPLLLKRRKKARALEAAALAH
Sequence of UniProt P51812 (whole entry, looked up): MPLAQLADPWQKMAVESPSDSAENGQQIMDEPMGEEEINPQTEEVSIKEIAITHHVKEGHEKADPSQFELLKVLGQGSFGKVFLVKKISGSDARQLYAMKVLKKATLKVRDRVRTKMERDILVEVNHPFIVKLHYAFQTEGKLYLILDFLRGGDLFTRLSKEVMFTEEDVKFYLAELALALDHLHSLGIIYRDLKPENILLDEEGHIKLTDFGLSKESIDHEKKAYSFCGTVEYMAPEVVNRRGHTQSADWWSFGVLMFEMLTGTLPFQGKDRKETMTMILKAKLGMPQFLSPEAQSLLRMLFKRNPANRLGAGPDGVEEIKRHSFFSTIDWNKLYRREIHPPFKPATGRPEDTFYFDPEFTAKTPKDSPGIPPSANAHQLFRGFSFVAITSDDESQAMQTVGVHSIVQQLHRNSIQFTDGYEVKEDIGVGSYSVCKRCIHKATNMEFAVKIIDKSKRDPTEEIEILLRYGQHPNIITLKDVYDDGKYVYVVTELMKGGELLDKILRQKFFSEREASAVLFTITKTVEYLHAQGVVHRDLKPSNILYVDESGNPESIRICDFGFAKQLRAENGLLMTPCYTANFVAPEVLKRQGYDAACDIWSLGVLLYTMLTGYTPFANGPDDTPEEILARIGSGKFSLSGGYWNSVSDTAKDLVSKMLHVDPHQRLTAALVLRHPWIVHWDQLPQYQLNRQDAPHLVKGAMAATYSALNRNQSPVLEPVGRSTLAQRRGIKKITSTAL
Sequence of UniProt P06239 (whole entry, looked up): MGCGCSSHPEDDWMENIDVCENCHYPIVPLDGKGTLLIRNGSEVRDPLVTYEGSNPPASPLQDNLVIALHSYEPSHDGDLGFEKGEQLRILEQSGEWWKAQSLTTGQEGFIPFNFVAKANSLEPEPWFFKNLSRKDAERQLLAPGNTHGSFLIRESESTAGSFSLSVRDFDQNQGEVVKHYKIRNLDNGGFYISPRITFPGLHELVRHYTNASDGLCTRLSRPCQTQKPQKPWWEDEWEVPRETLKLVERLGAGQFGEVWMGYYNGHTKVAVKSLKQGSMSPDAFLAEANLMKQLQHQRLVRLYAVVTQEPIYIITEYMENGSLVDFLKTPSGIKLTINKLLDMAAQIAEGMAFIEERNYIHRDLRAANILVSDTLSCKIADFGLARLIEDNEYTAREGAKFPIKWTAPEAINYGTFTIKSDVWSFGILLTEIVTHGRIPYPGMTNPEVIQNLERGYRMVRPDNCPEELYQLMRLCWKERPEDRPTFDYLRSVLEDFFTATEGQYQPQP
Sequence of UniProt Q99683 (whole entry, looked up): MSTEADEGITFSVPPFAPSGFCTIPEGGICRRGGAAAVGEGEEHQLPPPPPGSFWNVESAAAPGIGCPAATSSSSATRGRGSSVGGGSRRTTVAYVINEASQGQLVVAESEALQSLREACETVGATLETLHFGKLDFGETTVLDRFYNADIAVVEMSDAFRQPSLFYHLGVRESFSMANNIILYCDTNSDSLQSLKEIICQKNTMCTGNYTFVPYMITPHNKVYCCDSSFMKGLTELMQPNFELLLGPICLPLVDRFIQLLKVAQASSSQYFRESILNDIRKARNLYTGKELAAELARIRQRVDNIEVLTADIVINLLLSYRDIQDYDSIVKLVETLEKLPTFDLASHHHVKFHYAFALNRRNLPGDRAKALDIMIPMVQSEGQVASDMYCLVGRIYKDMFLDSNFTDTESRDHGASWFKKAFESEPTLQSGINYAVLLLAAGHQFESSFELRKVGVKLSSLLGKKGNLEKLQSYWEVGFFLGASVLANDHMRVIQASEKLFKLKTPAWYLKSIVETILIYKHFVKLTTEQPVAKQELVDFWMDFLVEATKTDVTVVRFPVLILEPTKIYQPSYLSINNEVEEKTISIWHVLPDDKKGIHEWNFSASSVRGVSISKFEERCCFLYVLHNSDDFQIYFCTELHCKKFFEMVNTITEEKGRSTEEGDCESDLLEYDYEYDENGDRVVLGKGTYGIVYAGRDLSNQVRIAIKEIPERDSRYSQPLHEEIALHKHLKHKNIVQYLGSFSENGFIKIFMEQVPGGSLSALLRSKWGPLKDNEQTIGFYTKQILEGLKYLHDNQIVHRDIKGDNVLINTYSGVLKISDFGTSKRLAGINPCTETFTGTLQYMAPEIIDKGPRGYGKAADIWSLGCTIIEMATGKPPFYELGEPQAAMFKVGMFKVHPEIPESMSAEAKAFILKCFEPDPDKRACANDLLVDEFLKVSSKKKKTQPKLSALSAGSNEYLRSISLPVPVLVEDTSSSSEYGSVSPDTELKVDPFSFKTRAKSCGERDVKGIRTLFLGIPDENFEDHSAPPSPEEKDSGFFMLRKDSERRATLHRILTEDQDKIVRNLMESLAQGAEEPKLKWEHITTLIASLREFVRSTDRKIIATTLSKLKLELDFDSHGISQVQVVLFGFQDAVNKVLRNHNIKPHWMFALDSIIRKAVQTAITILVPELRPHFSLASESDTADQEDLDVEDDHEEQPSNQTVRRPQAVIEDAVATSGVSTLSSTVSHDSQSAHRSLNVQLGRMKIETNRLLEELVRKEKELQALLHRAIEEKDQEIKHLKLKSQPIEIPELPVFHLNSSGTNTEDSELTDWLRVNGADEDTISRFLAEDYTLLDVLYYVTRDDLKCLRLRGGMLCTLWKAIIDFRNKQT
Sequence of UniProt Q8IYT8 (whole entry, looked up): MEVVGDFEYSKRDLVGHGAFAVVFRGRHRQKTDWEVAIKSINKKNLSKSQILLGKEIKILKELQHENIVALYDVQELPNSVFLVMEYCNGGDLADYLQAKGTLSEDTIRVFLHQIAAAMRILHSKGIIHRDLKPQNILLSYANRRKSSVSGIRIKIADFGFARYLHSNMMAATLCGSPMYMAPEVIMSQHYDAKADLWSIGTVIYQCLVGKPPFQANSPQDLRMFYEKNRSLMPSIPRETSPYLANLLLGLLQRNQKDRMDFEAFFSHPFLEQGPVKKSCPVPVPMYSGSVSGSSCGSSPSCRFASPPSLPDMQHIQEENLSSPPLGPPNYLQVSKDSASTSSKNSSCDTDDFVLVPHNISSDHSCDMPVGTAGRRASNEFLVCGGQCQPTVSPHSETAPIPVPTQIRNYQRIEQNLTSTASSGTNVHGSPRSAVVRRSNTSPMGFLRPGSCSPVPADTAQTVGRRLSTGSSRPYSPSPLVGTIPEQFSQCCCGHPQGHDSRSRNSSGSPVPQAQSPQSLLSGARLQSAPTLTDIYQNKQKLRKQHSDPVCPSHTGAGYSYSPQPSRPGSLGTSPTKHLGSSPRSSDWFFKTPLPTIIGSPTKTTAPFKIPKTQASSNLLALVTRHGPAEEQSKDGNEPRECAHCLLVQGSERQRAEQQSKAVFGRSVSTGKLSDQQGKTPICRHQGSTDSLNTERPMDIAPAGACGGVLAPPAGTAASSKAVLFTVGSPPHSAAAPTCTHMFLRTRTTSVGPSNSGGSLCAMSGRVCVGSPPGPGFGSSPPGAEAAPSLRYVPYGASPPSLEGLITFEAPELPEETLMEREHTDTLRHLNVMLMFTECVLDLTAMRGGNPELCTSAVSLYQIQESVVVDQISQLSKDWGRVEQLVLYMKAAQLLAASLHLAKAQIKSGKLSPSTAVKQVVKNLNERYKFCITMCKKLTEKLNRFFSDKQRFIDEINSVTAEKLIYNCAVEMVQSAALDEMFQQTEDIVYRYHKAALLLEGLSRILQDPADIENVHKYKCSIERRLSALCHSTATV
Sequence of UniProt Q9Y6M4 (whole entry, looked up): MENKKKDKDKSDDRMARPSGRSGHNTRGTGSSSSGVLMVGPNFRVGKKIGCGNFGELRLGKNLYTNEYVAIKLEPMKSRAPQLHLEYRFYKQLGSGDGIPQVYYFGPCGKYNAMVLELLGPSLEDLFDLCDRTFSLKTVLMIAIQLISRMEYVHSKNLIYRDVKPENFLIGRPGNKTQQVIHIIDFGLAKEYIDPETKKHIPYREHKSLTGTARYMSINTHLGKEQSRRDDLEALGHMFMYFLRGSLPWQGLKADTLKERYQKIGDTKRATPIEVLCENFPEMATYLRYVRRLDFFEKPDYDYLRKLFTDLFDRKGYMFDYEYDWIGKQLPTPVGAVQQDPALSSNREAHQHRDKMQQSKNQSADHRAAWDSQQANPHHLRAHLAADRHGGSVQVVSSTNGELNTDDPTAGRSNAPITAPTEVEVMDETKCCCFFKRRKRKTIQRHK

Series 1
Cell line: mouse MPNST tumor cells
Technique: high-content immunofluorescence imaging
Item: nuclear SOX9
Tested at: 10 µM
Time: 12 h
Notes: mean of 2 replicates
Reference: DMSO control
Reading: higher = more nuclear SOX9
Structure (SMILES) | nuclear SOX9 intensity
CS(=O)(=O)Nc1ccc([N+](=O)[O-])cc1OC1CCCCC1 | 92.3 % of DMSO
CC(=O)/N=c1/sc(S(N)(=O)=O)nn1C | 87.1 % of DMSO
O=C(CCCCCCC(=O)Nc1ccccc1)NO | 125 % of DMSO and 154 % of DMSO and 135 % of DMSO
COc1ccc2c(-c3ccc(O)c(C)c3)ccnc2c1 | 126 % of DMSO
CCc1cncnc1N1CCN(Cc2nc3ccc(C(F)(F)F)cc3[nH]2)CC1 | 84.4 % of DMSO

Series 2
SMILES: CN(C)c1ncnc(-c2ccc3nc(Nc4cc(CN5CCN(C(=O)CC(F)(F)F)CC5)ccn4)[nH]c3c2)c1Cl
Read-out: cell-free assay
Technique: competition with immobilised ligand
Tested at: 1 µM
target | remaining binding [%]
Ribosomal protein S6 kinase alpha-3, N-terminal kinase domain (RPS6KA3, Homo sapiens, UniProt P51812) | 81
Dual specificity protein kinase CLK4 (CLK4, Homo sapiens, UniProt Q9HAZ1) | 99
Tyrosine-protein kinase ABL1, non-phosphorylated (ABL1, Homo sapiens, UniProt P00519, H396P) | 4.2
Mitogen-activated protein kinase kinase kinase kinase 5 (MAP4K5, Homo sapiens, UniProt Q9Y4K4) | 100
Serine/threonine-protein kinase PAK 2 (PAK2, Homo sapiens, UniProt Q13177) | 100
Cytoplasmic tyrosine-protein kinase BMX (BMX, Homo sapiens, UniProt P51813) | 100

Series 3
Structure (SMILES): CC(C)[C@H](CO)Nc1nc(Nc2cccc(Cl)c2)c2ncn(C(C)C)c2n1
Read-out: enzyme activity
Action: inhibitor
Tested at: 0.5 µM
Reference: control
target | remaining activity [%]
Mitogen-activated protein kinase kinase kinase 5 (MAP3K5, Homo sapiens, UniProt Q99683) | 108
Serine/threonine-protein kinase Nek6 (NEK6, Homo sapiens, UniProt Q9HC98) | 91.3
Tyrosine-protein kinase ABL2 (ABL2, Homo sapiens, UniProt P42684) | 32.2
Serine/threonine-protein kinase ULK3 (ULK3, Homo sapiens, UniProt Q6PHR2) | 59.6
Serine/threonine-protein kinase Nek1 (NEK1, Homo sapiens, UniProt Q96PY6) | 107
Tyrosine-protein kinase Lck (LCK, Homo sapiens, UniProt P06239) | 86.9
Tyrosine-protein kinase FRK (FRK, Homo sapiens, UniProt P42685) | 90.2
Serine/threonine-protein kinase ULK2 (ULK2, Homo sapiens, UniProt Q8IYT8) | 97.7
MAP kinase-activated protein kinase 2 (MAPKAPK2, Homo sapiens, UniProt P49137) | 102
Dual specificity mitogen-activated protein kinase kinase 2 (MAP2K2, Homo sapiens, UniProt P36507) | 104
Casein kinase I isoform gamma-3 (CSNK1G3, Homo sapiens, UniProt Q9Y6M4) | 17.3
Wee1-like protein kinase (WEE1, Homo sapiens, UniProt P30291) | 82.6
Tyrosine-protein kinase JAK3 (JAK3, Homo sapiens, UniProt P52333) | 92.5
Activin receptor type-1B (ACVR1B, Homo sapiens, UniProt P36896) | 99.8
Serine/threonine-protein kinase TBK1 (TBK1, Homo sapiens, UniProt Q9UHD2) | 93

Series 4
Sample: 1,9-decadiene/PBS
pH: 7.4
SMILES | logD
CC(C)C[C@@H]1NC(=O)[C@H](CC(C)C)NC(=O)[C@@H](C(C)C)NC(=O)[C@H](C(C)C)NC(=O)[C@H](C(C)C)NC(=O)[C@H](C)NC(=O)[C@H](C)NC1=O | -1.74
CC(C)C[C@@H]1NC(=O)[C@H](Cc2cscn2)NC(=O)[C@H](Cc2cscn2)NC(=O)[C@H](C)NC(=O)[C@@H](CCC(=O)N2CCCC2)NC(=O)[C@H](CC(C)C)NC(=O)[C@@H](CC(C)C)NC1=O | -2.44
CC(C)C[C@@H]1NC(=O)[C@H](C(C)C)NC(=O)[C@H](Cc2cscn2)NC(=O)[C@H](CCC(=O)N2CCCC2)NC(=O)[C@@H](CCC(=O)N2CCCC2)NC(=O)[C@H](CC(C)C)NC(=O)[C@@H](CC(C)C)NC1=O | -2.21
CC(C)C[C@@H]1NC(=O)[C@H](C)NC(=O)[C@H](CC(C)C)NC(=O)[C@@H](CC(C)C)NC(=O)[C@H](CC(C)C)NC(=O)[C@@H](C)NC(=O)[C@@H](CC(C)C)NC1=O | -0.536
CC(C)C[C@@H]1NC(=O)[C@H](CC(C)C)NC(=O)[C@@H](CC(C)C)NC(=O)[C@H](C(C)C)NC(=O)[C@@H](CCC(=O)N2CCCC2)NC(=O)[C@H](C)NC(=O)[C@H](C)NC1=O | -2.8
